Results collected from several papers.
Numbered parts are unrelated; each lists some results of a single study. Changes are numbered by the printed parent chain.

Sample 1
Target: ABI1, truncated, D143A, DHFR fusion (Arabidopsis thaliana)
Method: DHFR PCA, deep sequencing
Matrix: yeast
Setting: methotrexate growth selection, single substitutions
With: (+)-ABA 17 µM
Reference: wild-type fitted maximum
Direction: higher = stronger binding
Parent: PYL1, truncated, DHFR fusion (Arabidopsis thaliana); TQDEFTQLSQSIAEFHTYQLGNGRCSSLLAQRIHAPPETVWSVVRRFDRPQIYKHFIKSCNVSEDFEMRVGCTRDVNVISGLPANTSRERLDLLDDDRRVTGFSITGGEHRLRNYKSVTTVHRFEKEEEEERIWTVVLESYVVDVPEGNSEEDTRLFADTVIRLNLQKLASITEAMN; partner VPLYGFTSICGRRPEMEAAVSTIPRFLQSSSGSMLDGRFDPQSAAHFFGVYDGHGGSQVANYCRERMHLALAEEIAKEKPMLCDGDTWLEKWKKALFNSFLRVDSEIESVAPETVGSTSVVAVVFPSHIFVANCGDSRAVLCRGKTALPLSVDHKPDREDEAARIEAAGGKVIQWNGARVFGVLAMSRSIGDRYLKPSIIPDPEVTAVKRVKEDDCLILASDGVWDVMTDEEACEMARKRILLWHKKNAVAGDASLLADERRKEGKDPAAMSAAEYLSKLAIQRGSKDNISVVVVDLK
For `T101N`, “relative binding score” read 5.64%.
Under “relative binding score”, `K116A` is recorded as 61.3%.
`A30W` — result for “relative binding score”: 80.3%.
For `S26W`, “relative binding score” read 61.9%.
For `S140C`, “relative binding score” read -4.03%.
Under “relative binding score”, `R45Q` is recorded as 7.24%.
`G71Q`: “relative binding score” 7.6%.
`S59Y`: “relative binding score” 47.9%.
For `S80L`, “relative binding score” read 6.78%.
Under “relative binding score”, `W41D` is recorded as 0.0975%.
`L169I` — result for “relative binding score”: -31.1%.
`E127M` — result for “relative binding score”: 87.8%.
`W134C`: “relative binding score” 97.5%.
Under “relative binding score”, `F66W` is recorded as 77%.
Under “relative binding score”, `T106S` is recorded as 35.2%.
`G102M`: “relative binding score” 27.8%.
Under “relative binding score”, `I105L` is recorded as -2.55%.
`N149G` — result for “relative binding score”: 33.9%.

Sample 2
Target: CCNA1, cyclin fold, Cln2 fusion (human)
Method: yeast growth competition, sequencing
Matrix: yeast
Setting: strong parent motif
Reference: not given
Direction: higher = stronger binding
Parent: E2F1 docking peptide (human); PPVKRRLDFETDH
`F9R` — result for “normalised enrichment score”: 0.43.
`P2H` — result for “normalised enrichment score”: 1.9.
`R6W`: “normalised enrichment score” 0.473.
`L7V`: “normalised enrichment score” 0.524.
For `F9P`, “normalised enrichment score” read 0.103.
`P2S`: “normalised enrichment score” 1.82.
`K4A` — result for “normalised enrichment score”: 1.08.
`D8R`: “normalised enrichment score” 1.3.
For `R6L`, “normalised enrichment score” read 0.481.
Under “normalised enrichment score”, `V3F` is recorded as 0.391.
`D8W`: “normalised enrichment score” 1.24.
Under “normalised enrichment score”, `E10K` is recorded as 1.49.
Under “normalised enrichment score”, `E10F` is recorded as 1.32.
For `E10G`, “normalised enrichment score” read 1.96.
For `F9W`, “normalised enrichment score” read 0.915.
Under “normalised enrichment score”, `D8H` is recorded as 1.27.
`D8C`: “normalised enrichment score” 1.51.
For `K4Y`, “normalised enrichment score” read 0.913.
For `F9S`, “normalised enrichment score” read 0.248.
`E10N` — result for “normalised enrichment score”: 2.
Under “normalised enrichment score”, `D8M` is recorded as 1.58.
`K4W`: “normalised enrichment score” 0.82.
Under “normalised enrichment score”, `R5Y` is recorded as 0.257.
`D8K`: “normalised enrichment score” 1.26.
Under “normalised enrichment score”, `K4T` is recorded as 0.809.

Sample 3
Target: PABPC1L2, full length, GST fusion (mouse, UniProt A0ABA7IW68)
Method: RNAcompete
Molecule type: RNA
Matrix: in vitro
Concentration: 20 nM
Setting: 7-mer, probes averaged, single round
Reference: mean of 7-mers
Direction: higher = stronger binding
Target sequence (chain): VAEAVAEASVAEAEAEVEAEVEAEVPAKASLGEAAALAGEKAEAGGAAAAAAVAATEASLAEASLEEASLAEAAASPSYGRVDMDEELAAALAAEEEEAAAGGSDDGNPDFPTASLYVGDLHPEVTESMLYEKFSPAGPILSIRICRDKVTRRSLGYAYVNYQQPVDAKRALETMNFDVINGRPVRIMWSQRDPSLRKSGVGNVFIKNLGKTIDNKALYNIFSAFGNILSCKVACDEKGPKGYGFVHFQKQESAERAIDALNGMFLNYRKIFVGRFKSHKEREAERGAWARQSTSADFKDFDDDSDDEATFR
The 7-mer Z-score of `AGCGAUG` is reported as 0.0569.
`GCGAUUU` has a 7-mer Z-score of -0.0573.
`GCGAGCG` has a 7-mer Z-score of 0.0623.
With `ACCCGCG` the 7-mer Z-score was -0.331.
With `UCUAGGG` the 7-mer Z-score was -0.15.
The 7-mer Z-score of `UUACACG` is reported as -0.106.
`GUCGCGC` has a 7-mer Z-score of -0.249.
`AGUCCAA` gave a 7-mer Z-score of 0.369.
For `UAGAAUA`, the 7-mer Z-score was 0.0406.
`GCCCUCA` has a 7-mer Z-score of -0.271.
`GGGGCCA` gave a 7-mer Z-score of 0.617.
The 7-mer Z-score of `CCAUGCC` is reported as -0.249.
For `CAUAUCC`, the 7-mer Z-score was -0.184.
`CCACCCA` gave a 7-mer Z-score of -0.171.
With `GAUCAGU` the 7-mer Z-score was -0.124.
`GCGUGCC` has a 7-mer Z-score of -0.0718.
`AGUCUCA` gave a 7-mer Z-score of -0.117.

Sample 4
Target: ATF1, bZIP domain (human)
Method: DHFR protein complementation
Matrix: yeast
Setting: single substitutions, most at no-binding floor
Reference: wild-type JUN-FOS pair
Direction: higher = stronger binding
Parent: JUN, bZIP domain (human); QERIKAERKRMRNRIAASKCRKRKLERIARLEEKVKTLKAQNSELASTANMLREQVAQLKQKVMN; partner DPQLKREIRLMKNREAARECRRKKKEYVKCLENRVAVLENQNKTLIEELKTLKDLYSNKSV
The binding fitness of `N42Q` is reported as -1.58 natural log.
For `V56F`, the binding fitness was -1.44 natural log.
The binding fitness of `L45F` is reported as -1.55 natural log.
`A40M` gave a binding fitness of -1.52 natural log.
The binding fitness of `R30K` is reported as -1.49 natural log.
`S43E` has a binding fitness of -1.41 natural log.
`I28P` gave a binding fitness of -1.51 natural log.
With `L45S` the binding fitness was -1.51 natural log.
`Q41I` gave a binding fitness of -1.35 natural log.
With `I28V` the binding fitness was -1.36 natural log.
With `V56Y` the binding fitness was -1.44 natural log.
With `A46E` the binding fitness was -1.48 natural log.
With `A49D` the binding fitness was -1.63 natural log.
For `E44F`, the binding fitness was -1.59 natural log.
`L52N` has a binding fitness of -1.7 natural log.
With `T48F` the binding fitness was -1.52 natural log.
`K39R` has a binding fitness of -1.44 natural log.
With `R53T` the binding fitness was -1.52 natural log.
With `S43Q` the binding fitness was -1.31 natural log.
For `I28A`, the binding fitness was -1.53 natural log.
The binding fitness of `S47T` is reported as -1.44 natural log.
`K34F` gave a binding fitness of -1.52 natural log.
`Q41D` gave a binding fitness of -1.62 natural log.
The binding fitness of `K39T` is reported as -1.48 natural log.
The binding fitness of `T48A` is reported as -1.48 natural log.

Sample 5
Target: Probable WRKY transcription factor 33, N-terminal DNA-binding domain (WRKY33, Arabidopsis thaliana, UniProt Q8S8P5, residues 169-264)
Method: DNA-protein interaction ELISA
Molecule type: double-stranded DNA, one strand shown
Matrix: in vitro, bacterial lysate
Concentration: not given
Setting: whole dsDNA probe, crude lysate protein
Reference: highest signal in screen
Direction: higher = stronger binding
Residues (chain): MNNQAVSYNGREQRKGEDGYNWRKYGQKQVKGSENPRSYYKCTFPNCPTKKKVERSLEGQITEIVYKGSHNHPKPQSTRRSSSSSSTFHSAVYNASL
`AAAAAAGCTGTCACTGTAGTCGGTCCAAAA` gave a relative absorbance of 26.9 % of maximum.
`AAAAAACCGGCACGATTTGGATATTCAAAA` gave a relative absorbance of 21.4 % of maximum.
With `AAAAAATTAGGACCATCCCCACTAGGAAAA` the relative absorbance was 25 % of maximum.
With `AAAAAATTCGGGACTAGTAGTGGTGAAAAA` the relative absorbance was 22 % of maximum.
`AAAAAAACACCTGTATAGCATGGACGAAAA` has a relative absorbance of 21.8 % of maximum.
With `AAAAAATAAATCGCGGCTACTGCTTCAAAA` the relative absorbance was 20 % of maximum.
`AAAAAAGCTTTCAACATCTGCGTCCAAAAA` gave a relative absorbance of 32.2 % of maximum.
With `AAAAAATTTTGTTTTTGCTTTTCCTTAAAA` the relative absorbance was 27.8 % of maximum.
With `AAAAAACGCTTTCAGTTTTGATCTTAAAAA` the relative absorbance was 32.1 % of maximum.
The relative absorbance of `AAAAAACGGAAGATCGTGACTGCTAGAAAA` is reported as 19.6 % of maximum.
The relative absorbance of `AAAAAATCAGTCTGAGACTTACAACTAAAA` is reported as 23.1 % of maximum.
The relative absorbance of `AAAAAAAGGGTCCGGTGCATACATGTAAAA` is reported as 20.3 % of maximum.
With `AAAAAATTGTGCCTCTGCCCTCGCCTAAAA` the relative absorbance was 21.7 % of maximum.
`AAAAAAGCCTTTACCCTTGTTCCTCTAAAA` has a relative absorbance of 24.5 % of maximum.
With `AAAAAATCCTGTTTGCGTTTGATTTTAAAA` the relative absorbance was 28.6 % of maximum.
For `AAAAAACGTGCGCGTGCATGTCATCGAAAA`, the relative absorbance was 27 % of maximum.
`AAAAAACATTCCTAGTTCATGTTACTAAAA` has a relative absorbance of 24.5 % of maximum.
`AAAAAATCCATGTTTAAGCTGGTCTCAAAA` gave a relative absorbance of 28.1 % of maximum.
For `AAAAAATGGCTCGGGTTCCAAGGTTGAAAA`, the relative absorbance was 32.8 % of maximum.
`AAAAAACATGTCGCACCTGTACTAACAAAA` has a relative absorbance of 25.7 % of maximum.
For `AAAAAATAGTGTGATTGGTATCCAGTAAAA`, the relative absorbance was 12.4 % of maximum.
With `AAAAAACACTTAACTGAGTGGGATTGAAAA` the relative absorbance was 21.9 % of maximum.
`AAAAAAGGTAATGCCGGTCCCAGTATAAAA` has a relative absorbance of 16 % of maximum.
With `AAAAAATGTTGTTGCTGTTGGTCCTAAAAA` the relative absorbance was 20.2 % of maximum.
The relative absorbance of `AAAAAACTACTACCTTTGCCTAAGCGAAAA` is reported as 20.2 % of maximum.

Excerpt of the above (sample 3):
`CCACCCA` gave a 7-mer Z-score of -0.171.
The 7-mer Z-score of `UUACACG` is reported as -0.106.
With `GAUCAGU` the 7-mer Z-score was -0.124.
`GCCCUCA` has a 7-mer Z-score of -0.271.
The 7-mer Z-score of `AGCGAUG` is reported as 0.0569.
`GCGAGCG` has a 7-mer Z-score of 0.0623.
With `UCUAGGG` the 7-mer Z-score was -0.15.
The 7-mer Z-score of `CCAUGCC` is reported as -0.249.
`GGGGCCA` gave a 7-mer Z-score of 0.617.
For `UAGAAUA`, the 7-mer Z-score was 0.0406.
